Measurements gathered from unrelated publications.
A part holds a random share of what one study measured.
UniProt P10721, sequence (whole entry, unmodified, looked up): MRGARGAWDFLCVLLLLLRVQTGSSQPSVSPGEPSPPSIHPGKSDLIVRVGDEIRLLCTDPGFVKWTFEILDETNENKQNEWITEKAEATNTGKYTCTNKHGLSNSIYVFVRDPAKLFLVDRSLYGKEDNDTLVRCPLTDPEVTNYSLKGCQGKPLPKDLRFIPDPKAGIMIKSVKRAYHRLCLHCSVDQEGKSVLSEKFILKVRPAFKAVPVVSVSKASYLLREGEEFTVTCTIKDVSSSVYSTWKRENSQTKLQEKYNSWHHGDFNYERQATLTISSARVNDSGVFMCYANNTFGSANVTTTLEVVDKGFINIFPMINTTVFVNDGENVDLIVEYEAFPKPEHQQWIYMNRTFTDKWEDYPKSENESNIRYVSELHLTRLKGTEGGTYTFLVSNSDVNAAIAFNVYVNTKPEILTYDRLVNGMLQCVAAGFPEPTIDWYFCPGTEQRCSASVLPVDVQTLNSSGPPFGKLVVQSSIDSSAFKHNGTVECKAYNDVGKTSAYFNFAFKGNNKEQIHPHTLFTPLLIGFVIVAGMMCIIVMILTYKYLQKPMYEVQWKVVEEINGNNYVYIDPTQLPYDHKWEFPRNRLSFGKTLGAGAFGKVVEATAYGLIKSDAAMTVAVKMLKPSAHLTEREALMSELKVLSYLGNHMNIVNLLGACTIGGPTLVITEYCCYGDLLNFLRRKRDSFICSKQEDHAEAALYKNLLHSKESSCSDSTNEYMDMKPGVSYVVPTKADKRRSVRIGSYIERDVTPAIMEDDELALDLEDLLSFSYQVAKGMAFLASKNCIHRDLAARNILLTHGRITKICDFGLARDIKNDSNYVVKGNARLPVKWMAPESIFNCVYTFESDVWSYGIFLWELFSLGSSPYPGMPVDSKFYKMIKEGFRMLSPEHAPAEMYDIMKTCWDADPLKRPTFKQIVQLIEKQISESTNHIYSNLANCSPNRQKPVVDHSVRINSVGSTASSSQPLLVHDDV
UniProt O00329, sequence (whole entry, looked up): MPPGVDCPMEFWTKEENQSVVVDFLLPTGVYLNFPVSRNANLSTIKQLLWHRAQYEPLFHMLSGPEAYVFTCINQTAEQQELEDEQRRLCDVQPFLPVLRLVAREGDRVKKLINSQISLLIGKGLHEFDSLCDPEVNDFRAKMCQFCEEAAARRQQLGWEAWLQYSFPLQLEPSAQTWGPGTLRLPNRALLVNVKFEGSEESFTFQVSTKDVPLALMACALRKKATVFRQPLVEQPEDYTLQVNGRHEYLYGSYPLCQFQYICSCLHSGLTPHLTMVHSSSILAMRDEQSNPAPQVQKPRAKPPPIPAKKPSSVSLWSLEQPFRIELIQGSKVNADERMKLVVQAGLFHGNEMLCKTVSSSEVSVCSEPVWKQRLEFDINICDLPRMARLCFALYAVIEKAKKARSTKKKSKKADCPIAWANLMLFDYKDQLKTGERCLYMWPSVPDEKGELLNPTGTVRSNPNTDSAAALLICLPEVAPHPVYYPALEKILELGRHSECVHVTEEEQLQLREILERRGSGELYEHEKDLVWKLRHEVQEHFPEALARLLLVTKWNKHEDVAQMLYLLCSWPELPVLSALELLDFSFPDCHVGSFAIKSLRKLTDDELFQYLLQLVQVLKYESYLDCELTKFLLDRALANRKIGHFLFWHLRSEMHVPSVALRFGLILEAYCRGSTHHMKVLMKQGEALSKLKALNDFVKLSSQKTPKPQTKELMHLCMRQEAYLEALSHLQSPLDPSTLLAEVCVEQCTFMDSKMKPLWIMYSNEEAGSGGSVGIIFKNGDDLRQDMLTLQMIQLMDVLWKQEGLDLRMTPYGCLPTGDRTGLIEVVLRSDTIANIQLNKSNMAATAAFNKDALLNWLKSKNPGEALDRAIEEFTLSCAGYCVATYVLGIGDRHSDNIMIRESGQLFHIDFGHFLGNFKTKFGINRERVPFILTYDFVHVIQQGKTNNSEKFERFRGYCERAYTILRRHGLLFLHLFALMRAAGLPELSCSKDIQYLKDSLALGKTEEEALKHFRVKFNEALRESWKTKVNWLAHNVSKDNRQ
UniProt Q99558, sequence (whole entry, looked up): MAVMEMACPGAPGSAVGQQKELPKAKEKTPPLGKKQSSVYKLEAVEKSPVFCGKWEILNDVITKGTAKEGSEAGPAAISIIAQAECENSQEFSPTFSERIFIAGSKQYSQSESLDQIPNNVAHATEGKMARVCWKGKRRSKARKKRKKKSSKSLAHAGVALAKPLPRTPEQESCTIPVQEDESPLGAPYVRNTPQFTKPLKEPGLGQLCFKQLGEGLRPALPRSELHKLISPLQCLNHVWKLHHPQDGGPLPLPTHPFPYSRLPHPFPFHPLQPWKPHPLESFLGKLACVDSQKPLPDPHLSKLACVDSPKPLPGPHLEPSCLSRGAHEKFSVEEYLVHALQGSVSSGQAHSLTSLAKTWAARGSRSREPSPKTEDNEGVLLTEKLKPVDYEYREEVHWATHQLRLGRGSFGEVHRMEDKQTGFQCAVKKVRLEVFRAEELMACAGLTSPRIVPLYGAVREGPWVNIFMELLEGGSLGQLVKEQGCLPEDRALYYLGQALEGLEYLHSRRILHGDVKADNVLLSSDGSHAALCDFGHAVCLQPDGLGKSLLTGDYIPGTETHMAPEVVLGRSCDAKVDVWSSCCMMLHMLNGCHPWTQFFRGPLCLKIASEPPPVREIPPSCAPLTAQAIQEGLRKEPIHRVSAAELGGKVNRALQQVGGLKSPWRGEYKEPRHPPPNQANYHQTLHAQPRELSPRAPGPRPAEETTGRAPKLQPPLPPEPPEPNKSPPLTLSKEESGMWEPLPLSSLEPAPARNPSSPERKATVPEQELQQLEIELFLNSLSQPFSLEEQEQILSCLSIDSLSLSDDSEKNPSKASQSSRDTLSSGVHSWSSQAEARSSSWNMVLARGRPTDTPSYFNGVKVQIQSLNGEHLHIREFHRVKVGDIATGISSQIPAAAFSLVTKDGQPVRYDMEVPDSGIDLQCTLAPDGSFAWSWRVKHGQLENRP
UniProt Q15746, sequence (whole entry, looked up): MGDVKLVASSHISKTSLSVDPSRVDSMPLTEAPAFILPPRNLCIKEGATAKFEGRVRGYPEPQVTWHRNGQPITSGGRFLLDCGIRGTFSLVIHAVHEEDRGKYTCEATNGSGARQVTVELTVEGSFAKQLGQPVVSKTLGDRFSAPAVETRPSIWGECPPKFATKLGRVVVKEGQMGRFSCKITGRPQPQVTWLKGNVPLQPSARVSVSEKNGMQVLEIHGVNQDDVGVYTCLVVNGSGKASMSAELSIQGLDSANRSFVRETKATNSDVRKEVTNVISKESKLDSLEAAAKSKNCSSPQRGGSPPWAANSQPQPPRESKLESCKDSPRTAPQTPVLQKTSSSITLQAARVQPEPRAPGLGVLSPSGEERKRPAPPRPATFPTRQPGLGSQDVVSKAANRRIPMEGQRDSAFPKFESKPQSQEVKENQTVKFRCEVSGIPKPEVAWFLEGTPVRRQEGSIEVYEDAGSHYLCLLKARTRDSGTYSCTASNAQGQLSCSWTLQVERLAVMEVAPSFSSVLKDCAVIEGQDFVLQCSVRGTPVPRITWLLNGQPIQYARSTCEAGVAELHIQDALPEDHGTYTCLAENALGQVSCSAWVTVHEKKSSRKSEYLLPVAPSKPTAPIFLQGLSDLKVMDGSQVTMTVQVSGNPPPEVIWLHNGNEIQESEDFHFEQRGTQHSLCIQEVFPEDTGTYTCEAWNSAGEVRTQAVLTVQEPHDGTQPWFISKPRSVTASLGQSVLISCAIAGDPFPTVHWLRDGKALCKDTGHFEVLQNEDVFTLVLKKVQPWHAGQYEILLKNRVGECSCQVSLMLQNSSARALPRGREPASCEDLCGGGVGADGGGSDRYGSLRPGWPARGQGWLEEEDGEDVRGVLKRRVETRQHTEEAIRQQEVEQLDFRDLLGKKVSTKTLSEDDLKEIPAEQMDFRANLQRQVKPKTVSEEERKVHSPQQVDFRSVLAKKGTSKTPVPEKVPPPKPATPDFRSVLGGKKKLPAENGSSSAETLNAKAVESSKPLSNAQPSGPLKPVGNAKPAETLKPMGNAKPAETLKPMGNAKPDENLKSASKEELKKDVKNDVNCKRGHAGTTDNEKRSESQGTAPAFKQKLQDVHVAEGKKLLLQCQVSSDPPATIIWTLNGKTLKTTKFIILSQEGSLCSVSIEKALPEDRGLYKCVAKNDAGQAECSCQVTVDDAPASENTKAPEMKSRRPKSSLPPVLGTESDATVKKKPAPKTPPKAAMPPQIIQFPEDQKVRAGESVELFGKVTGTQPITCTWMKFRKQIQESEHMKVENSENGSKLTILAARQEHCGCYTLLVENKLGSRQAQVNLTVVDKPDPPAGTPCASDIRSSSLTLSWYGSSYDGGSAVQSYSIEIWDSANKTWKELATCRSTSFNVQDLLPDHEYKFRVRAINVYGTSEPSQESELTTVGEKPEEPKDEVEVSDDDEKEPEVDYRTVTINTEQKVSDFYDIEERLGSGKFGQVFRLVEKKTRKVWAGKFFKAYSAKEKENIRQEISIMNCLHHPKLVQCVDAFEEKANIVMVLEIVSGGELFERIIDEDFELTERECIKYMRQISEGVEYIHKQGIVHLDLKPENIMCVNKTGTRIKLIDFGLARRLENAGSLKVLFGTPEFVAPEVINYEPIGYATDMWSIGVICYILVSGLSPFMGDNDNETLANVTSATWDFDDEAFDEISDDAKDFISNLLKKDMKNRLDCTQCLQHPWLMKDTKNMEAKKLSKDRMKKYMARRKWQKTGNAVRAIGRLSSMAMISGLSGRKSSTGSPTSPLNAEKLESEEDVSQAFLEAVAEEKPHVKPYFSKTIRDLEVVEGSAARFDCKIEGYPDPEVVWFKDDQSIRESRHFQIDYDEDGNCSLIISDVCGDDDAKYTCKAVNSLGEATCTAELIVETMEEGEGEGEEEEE

Series 1
Structure (SMILES): c1ccc(-c2n[nH]c3c2oc2ccccc23)cc1
Effect on: enzyme activity
Mode: inhibitor
Tested at: 0.5 µM
Relative to: control
Quantity: remaining activity
target = Casein kinase I isoform gamma-3 (CSNK1G3, Homo sapiens, UniProt Q9Y6M4); result = 88.5%
target = Glycogen synthase kinase-3 beta (GSK3B, Homo sapiens, UniProt P49841); result = 105%
target = Serine/threonine-protein kinase ULK2 (ULK2, Homo sapiens, UniProt Q8IYT8); result = 96.4%
target = Serine/threonine-protein kinase TAO2 (TAOK2, Homo sapiens, UniProt Q9UL54); result = 80.7%
target = Rhodopsin kinase GRK7 (GRK7, Homo sapiens, UniProt Q8WTQ7); result = 102%
target = Fibroblast growth factor receptor 3 (FGFR3, Homo sapiens, UniProt P22607); result = 97.5%
target = Mitogen-activated protein kinase 3 (MAPK3, Homo sapiens, UniProt P27361); result = 87.3%
target = MAP kinase-activated protein kinase 2 (MAPKAPK2, Homo sapiens, UniProt P49137); result = 99.1%
target = Ephrin type-A receptor 3 (EPHA3, Homo sapiens, UniProt P29320); result = 104%
target = Wee1-like protein kinase (WEE1, Homo sapiens, UniProt P30291); result = 92.6%
target = Tyrosine-protein kinase JAK3 (JAK3, Homo sapiens, UniProt P52333); result = 132%
target = Tyrosine-protein kinase Mer (MERTK, Homo sapiens, UniProt Q12866); result = 80%
target = Serine/threonine-protein kinase TBK1 (TBK1, Homo sapiens, UniProt Q9UHD2); result = 105%

Series 2
Target: Prothrombin, mature alpha-thrombin (F2, Homo sapiens, UniProt P00734)
Technique: aptamer microarray, sandwich
Form: DNA with 2'F-ANA
Matrix: in vitro
Tested at: 200 nM
Notes: whole 15-mer aptamer, many near background
Together with: Cy3 exosite-II aptamer, 400 nM
Direction: higher = stronger binding
Quantity: mean fluorescence intensity
Sequence: GGTTGGTGTGGTTGG
Modification = 2'F-ANA at 1 2 3 5 6 8 10 12 14 15; result = 52.3 a.u.
Modification = 2'F-ANA at 2 3 4 7 8 10 13 15; result = 268 a.u.
Modification = 2'F-ANA at 5 8 11 12 14; result = 47.1 a.u.
Modification = 2'F-ANA at 1 2 4 10 14; result = 43.1 a.u.
Modification = 2'F-ANA at 1 3 4 6 13 14; result = 61.6 a.u.
Modification = 2'F-ANA at 2 3 5 6 7 11 12 15; result = 129 a.u.
Modification = 2'F-ANA at 2 5 6 8 10 11; result = 130 a.u.
Modification = 2'F-ANA at 1 2 3 4 6 10 11 12 13 14 15; result = 52.5 a.u.

Series 3
Compound: O=C(Nc1cnc(Oc2ccc(F)cc2)nc1)N1CCc2ncccc2[C@@H]1c1ccc(F)cc1
Effect on: cell-free assay
Technique: competition with immobilised ligand
Tested at: 1 µM
Quantity: remaining binding
target = Dual specificity tyrosine-phosphorylation-regulated kinase 1A (DYRK1A, Homo sapiens, UniProt Q13627); result = 100%
target = Mitogen-activated protein kinase kinase kinase 14 (MAP3K14, Homo sapiens, UniProt Q99558); result = 100%
target = Ribosomal protein S6 kinase alpha-2, C-terminal kinase domain (RPS6KA2, Homo sapiens, UniProt Q15349); result = 79%
target = Phosphatidylinositol 4,5-bisphosphate 3-kinase catalytic subunit delta isoform (PIK3CD, Homo sapiens, UniProt O00329); result = 100%
target = Dual specificity mitogen-activated protein kinase kinase 2 (MAP2K2, Homo sapiens, UniProt P36507); result = 93%
target = Serine/threonine-protein kinase 3 (STK3, Homo sapiens, UniProt Q13188); result = 100%
target = Mast/stem cell growth factor receptor Kit (KIT, Homo sapiens, UniProt P10721, A829P); result = 100%
target = Mast/stem cell growth factor receptor Kit (KIT, Homo sapiens, UniProt P10721, D816V); result = 98%
target = Receptor tyrosine-protein kinase erbB-3 (ERBB3, Homo sapiens, UniProt P21860); result = 100%
target = Ribosomal protein S6 kinase alpha-4, C-terminal kinase domain (RPS6KA4, Homo sapiens, UniProt O75676); result = 89%
target = Myosin light chain kinase, smooth muscle (MYLK, Homo sapiens, UniProt Q15746); result = 100%
target = 1-phosphatidylinositol 3-phosphate 5-kinase (PIKFYVE, Homo sapiens, UniProt Q9Y2I7); result = 63%

Further values, each from its own experiment
Technique: cross-linking MS
Molecule = NDUFS7 (Homo sapiens, UniProt O75251); partner = NDUFA9 (Homo sapiens, UniProt Q16795); test system = cell fractions; setting = together with: DSSO; quantity = cross-linked residues; result = K55 to K147
Molecule = KRT18 (Homo sapiens, UniProt P05783); partner = KRT6C (Homo sapiens, UniProt P48668); setting = hits only; quantity = interaction screen; result = cross-linked
Molecule = LDHB (Homo sapiens, UniProt P07195); partner = ZNF518B (Homo sapiens, UniProt Q9C0D4); test system = cell fractions; setting = together with: DHSO; quantity = cross-linked residues; result = D57 to E395
Molecule = NEFL (Homo sapiens, UniProt P07196); partner = VIM (Homo sapiens, UniProt P08670); setting = hits only; quantity = interaction screen; result = cross-linked

Some of these lines once more (series 3):
target = Dual specificity mitogen-activated protein kinase kinase 2 (MAP2K2, Homo sapiens, UniProt P36507); result = 93%
target = Serine/threonine-protein kinase 3 (STK3, Homo sapiens, UniProt Q13188); result = 100%
target = Mast/stem cell growth factor receptor Kit (KIT, Homo sapiens, UniProt P10721, A829P); result = 100%
target = Mast/stem cell growth factor receptor Kit (KIT, Homo sapiens, UniProt P10721, D816V); result = 98%
target = Receptor tyrosine-protein kinase erbB-3 (ERBB3, Homo sapiens, UniProt P21860); result = 100%
target = Ribosomal protein S6 kinase alpha-4, C-terminal kinase domain (RPS6KA4, Homo sapiens, UniProt O75676); result = 89%
